Experimental data from different studies.
Each line is one published result; not all experiments were run side by side. Values joined by “and” are separate records of one study, mostly repeats; a detail may differ. Numbers after ± are the reported error.
KLRK1 with ULBP6: NKG2-D type II integral membrane protein, with ULBP6 (KLRK1, Homo sapiens, UniProt P26718)
UniProt P26718, sequence (whole entry, looked up): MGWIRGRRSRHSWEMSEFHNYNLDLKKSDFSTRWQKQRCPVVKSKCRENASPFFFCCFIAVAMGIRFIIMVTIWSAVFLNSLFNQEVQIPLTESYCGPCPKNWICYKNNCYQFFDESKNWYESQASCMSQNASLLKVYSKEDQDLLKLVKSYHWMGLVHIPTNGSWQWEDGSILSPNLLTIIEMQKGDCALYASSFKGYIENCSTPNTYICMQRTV
Metallo-beta-lactamase type 2: Metallo-beta-lactamase type 2 (Serratia marcescens, UniProt P52699)
UniProt P40261, sequence (whole entry, looked up): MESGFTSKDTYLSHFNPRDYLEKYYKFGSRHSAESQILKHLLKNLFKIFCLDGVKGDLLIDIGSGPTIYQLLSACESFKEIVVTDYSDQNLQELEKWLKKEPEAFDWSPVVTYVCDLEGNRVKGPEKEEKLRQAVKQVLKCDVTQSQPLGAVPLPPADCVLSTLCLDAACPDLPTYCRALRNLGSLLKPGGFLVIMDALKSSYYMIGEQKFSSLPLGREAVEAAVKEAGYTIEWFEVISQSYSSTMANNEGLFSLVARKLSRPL
UniProt P05067, sequence (whole entry, looked up): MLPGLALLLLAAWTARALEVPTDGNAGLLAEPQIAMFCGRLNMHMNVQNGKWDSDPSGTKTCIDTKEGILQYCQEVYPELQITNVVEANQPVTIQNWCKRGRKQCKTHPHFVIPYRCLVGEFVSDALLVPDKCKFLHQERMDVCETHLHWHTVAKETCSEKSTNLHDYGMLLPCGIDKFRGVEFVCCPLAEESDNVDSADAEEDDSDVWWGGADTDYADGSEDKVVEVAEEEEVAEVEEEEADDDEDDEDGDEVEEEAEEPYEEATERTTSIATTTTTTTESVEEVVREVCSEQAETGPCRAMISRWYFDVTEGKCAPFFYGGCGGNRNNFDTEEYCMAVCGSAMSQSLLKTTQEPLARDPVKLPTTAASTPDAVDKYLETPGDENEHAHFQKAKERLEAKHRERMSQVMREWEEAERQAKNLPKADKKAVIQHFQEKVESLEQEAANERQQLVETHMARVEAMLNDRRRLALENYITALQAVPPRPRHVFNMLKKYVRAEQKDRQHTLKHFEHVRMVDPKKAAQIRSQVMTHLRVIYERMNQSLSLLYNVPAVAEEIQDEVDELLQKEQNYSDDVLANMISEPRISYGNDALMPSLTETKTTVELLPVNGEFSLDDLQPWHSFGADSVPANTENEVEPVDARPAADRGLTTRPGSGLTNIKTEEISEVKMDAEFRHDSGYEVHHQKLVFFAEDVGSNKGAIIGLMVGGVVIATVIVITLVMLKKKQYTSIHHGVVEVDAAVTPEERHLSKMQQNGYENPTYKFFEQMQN
UniProt P52699, sequence (whole entry, looked up): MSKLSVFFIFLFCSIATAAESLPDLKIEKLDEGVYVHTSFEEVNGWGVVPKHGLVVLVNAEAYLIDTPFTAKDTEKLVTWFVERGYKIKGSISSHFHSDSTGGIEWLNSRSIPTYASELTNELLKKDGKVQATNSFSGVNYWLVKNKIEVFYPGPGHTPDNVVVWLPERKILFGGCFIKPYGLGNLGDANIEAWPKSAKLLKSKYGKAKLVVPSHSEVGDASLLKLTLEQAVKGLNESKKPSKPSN
UniProt P63251, sequence (whole entry, looked up): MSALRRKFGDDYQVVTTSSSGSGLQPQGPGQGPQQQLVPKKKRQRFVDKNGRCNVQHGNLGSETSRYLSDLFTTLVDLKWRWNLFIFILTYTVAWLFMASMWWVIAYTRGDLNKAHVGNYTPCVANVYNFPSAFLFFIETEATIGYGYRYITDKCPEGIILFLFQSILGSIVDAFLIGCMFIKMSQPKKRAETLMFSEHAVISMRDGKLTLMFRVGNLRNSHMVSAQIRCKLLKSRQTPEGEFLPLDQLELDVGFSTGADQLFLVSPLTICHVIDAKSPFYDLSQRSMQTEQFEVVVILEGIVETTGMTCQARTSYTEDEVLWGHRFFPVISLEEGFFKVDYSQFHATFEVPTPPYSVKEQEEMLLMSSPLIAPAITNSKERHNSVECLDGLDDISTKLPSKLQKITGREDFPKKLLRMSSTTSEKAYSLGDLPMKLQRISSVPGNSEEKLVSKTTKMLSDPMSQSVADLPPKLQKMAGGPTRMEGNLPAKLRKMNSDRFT
UniProt P16388, sequence (whole entry, looked up): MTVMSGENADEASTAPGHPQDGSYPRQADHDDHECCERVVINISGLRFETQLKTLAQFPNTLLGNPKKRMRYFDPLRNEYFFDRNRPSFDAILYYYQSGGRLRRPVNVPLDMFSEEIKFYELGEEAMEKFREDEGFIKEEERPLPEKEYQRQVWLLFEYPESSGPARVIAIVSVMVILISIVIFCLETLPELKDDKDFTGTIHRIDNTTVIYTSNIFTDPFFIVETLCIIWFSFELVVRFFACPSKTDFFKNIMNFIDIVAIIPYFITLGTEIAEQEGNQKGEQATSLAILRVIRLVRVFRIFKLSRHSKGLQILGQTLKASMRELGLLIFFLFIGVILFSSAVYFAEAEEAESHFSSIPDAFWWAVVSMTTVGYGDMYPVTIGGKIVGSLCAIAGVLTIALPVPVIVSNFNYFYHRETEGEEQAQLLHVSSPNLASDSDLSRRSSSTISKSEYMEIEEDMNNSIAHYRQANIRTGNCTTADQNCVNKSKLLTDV
UniProt P48542, sequence (whole entry, looked up): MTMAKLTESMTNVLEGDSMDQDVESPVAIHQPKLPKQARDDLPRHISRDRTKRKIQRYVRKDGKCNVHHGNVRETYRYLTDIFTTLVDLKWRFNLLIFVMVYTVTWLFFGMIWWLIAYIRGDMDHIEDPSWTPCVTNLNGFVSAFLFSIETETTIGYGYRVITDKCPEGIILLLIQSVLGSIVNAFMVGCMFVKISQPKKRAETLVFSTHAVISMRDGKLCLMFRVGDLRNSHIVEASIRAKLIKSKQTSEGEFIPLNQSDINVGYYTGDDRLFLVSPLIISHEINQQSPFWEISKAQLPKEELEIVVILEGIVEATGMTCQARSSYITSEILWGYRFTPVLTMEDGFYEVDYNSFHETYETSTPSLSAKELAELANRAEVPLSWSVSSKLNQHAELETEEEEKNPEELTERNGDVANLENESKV
UniProt Q08499, sequence (whole entry, looked up): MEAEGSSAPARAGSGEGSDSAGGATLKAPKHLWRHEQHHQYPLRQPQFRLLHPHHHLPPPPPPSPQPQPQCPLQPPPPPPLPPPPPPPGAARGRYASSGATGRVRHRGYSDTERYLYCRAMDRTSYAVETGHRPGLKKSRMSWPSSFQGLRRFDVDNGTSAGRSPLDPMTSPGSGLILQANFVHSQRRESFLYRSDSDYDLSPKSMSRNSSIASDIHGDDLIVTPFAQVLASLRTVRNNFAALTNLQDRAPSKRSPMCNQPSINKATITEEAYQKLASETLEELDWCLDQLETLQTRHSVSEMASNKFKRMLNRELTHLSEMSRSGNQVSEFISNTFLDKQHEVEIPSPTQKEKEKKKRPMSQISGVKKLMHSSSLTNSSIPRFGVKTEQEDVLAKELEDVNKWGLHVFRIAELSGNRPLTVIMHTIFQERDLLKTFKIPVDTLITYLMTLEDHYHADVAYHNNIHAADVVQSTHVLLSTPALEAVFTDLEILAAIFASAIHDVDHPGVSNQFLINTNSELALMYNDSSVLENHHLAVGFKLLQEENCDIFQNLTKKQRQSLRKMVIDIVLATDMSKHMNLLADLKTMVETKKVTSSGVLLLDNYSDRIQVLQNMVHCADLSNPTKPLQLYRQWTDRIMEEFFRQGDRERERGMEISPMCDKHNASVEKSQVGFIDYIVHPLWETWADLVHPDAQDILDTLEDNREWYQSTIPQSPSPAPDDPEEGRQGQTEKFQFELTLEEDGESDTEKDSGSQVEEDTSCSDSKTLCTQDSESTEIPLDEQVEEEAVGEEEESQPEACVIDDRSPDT
UniProt Q920B6, sequence (whole entry, looked up): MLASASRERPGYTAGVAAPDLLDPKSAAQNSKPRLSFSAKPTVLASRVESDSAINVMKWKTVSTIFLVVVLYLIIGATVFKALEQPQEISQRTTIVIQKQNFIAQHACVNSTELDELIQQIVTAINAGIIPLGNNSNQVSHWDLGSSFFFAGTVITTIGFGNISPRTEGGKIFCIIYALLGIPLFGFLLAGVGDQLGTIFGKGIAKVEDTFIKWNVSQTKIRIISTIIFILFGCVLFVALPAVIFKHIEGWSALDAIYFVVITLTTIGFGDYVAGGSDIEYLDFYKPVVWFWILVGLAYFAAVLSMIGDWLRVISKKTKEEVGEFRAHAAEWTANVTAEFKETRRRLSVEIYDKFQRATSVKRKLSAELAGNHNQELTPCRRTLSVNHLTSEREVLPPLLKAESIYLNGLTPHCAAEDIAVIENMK
UniProt Q86TU7, sequence (whole entry, looked up): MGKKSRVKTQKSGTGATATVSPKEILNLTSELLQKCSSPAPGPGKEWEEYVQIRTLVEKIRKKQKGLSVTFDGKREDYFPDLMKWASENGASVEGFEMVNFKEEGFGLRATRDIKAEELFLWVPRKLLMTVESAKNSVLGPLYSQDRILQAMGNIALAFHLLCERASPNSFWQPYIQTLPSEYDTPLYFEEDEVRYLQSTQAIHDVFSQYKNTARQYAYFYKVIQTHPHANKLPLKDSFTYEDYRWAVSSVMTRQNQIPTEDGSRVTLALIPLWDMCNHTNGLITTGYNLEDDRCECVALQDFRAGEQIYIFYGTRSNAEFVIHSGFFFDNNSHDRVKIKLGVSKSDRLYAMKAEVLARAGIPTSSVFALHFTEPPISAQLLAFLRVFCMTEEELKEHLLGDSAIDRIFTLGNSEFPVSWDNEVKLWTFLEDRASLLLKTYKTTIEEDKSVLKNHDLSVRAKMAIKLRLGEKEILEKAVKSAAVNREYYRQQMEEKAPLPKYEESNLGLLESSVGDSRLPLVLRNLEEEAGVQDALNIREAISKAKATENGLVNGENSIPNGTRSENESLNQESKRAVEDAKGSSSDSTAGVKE

COc1cc2c(=O)cc(-c3ccccc3)oc2c2c1OC(C)(C)C=C2
IC50 (APP (Homo sapiens, UniProt P05067); amyloid aggregation, inhibitor, fluorescence): 85 µM and 85.1 µM

CC(=O)NC1C(OC2OC(CC(O)C3OC(n4ccc(=O)[nH]c4=O)C(O)C3O)C(O)C(O)C2NC(=O)C=CCCCCCCCCCC(C)C)OC(CO)C(O)C1O (centres unmarked)
IC50 (Putative glycosyltransferase MJ1113 (Methanocaldococcus jannaschii, UniProt Q58513); enzyme activity, inhibitor; Methanococcus jannaschii enzyme): > 50 µM

CN1C(=O)[C@H](Cc2ccccc2)N(C)C(=O)[C@@H]2[C@H]1CCN2Cc1cc(Cl)cc(Cl)c1
IC50 (KLRK1 with ULBP6; ligand binding, inhibitor, TR-FRET; HEK293 expressing NKG2D and DAP10; together with: ULBP6-AF647): 13.6 µM

COC(=O)C1CN1S(=O)(=O)c1ccc(F)cc1F (centres unmarked)
IC50 (PDIA3 (Homo sapiens, UniProt P30101); enzyme activity, inhibitor, absorbance; pH 7.6): 113 µM

CC[C@H](C)[C@@H]1NC(=O)[C@H](CCCNC(=N)N)NC(=O)[C@H](CCCNC(=N)N)NC(=O)[C@H](C)NC(=O)[C@H](Cc2ccc(O)cc2)NC(=O)CSC[C@@H](C(=O)NCC(N)=O)NC(=O)[C@H]([C@@H](C)CC)NC(=O)[C@H](C(C)C)NC(=O)[C@H](C(C)C)NC(=O)[C@H](CC(C)C)NC(=O)[C@H](CCCNC(=N)N)NC(=O)[C@H](CC(=O)O)NC(=O)[C@H](CCCNC(=N)N)NC(=O)[C@H](Cc2ccccc2)NC(=O)[C@H](C(C)C)NC(=O)[C@H](CC(C)C)NC(=O)[C@H]([C@@H](C)CC)NC1=O
IC50 (NNMT (Homo sapiens, UniProt P40261); enzyme activity, inhibitor, mass spectrometry): 4.96 µM and ~5 µM

CC(=O)N[C@@H](CCCNC(=N)N)C(=O)N[C@H](C(=O)N1CCC[C@H]1C(=O)N[C@@H](COP(=O)(O)O)C(=O)N[C@@H](CC(C)C)C(=O)N1CCC[C@H]1C(=O)N[C@H](C)C(=O)N1CCC[C@H]1C(c1ccccc1)c1ccccc1)[C@@H](C)O
IC50 (YWHAZ (Homo sapiens, UniProt P63104); peptide binding, inhibitor, competitive fluorescence polarization; 10 µM protein, together with: 100 nM FAM-labelled diphosphorylated Tau peptide): 6.2 µM

CC[C@H](C)[C@@H]1NC(=O)[C@H](CCCNC(=N)N)NC(=O)[C@H](CC(N)=O)NC(=O)[C@@H]2CSSC[C@@H](C(=O)NCC(=O)N[C@@H](CCCCN)C(=O)N[C@@H](C)C(N)=O)NC(=O)[C@H](CCCCN)NC(=O)[C@H](CCCCN)NC(=O)[C@H](Cc3c[nH]c4ccccc34)NC(=O)[C@H](CSSC[C@H](NC(=O)[C@H](CC(C)C)NC(=O)[C@H](C)N)C(=O)N[C@@H](CC(N)=O)C(=O)N2)NC(=O)[C@H](CCC(N)=O)NC(=O)[C@H](Cc2c[nH]cn2)NC(=O)[C@@H]2CCCN2C(=O)[C@H]([C@@H](C)CC)NC(=O)[C@H]([C@@H](C)CC)NC1=O
IC50 (Kcnj6/Kcnj3 (Mus musculus, UniProt P48542+P63251); ion current, inhibitor, two-electrode voltage clamp; Xenopus laevis oocytes; -80 mV, 20 mM K+, together with: Gbeta1gamma2 activation): 0.034 ± 0.002 µM

Cn1nnnc1-c1cccc(NC(=O)CCS)c1
IC50 (blaNDM-1 (Klebsiella pneumoniae, UniProt C7C422); enzyme activity, inhibitor, fluorescence; with preincubation): 3.23 µM

Cc1ccc(-c2nc3c(=O)n(C)c(=O)nc-3n(C)n2)cc1
IC50 (TPR (Trypanosoma brucei brucei, UniProt P39051); inhibitor, DTNB-coupled colourimetric; together with: substrate at Km): 8.6 µM

CCCCC[N+](CCCCC)(CCCCC)CCCCC
IC50 (Kcnk2 (Rattus norvegicus, UniProt Q920B6); ion current, inhibitor; oocytes): 13 µM

CNC(=O)C1CCN(c2ccccc2NC(=O)c2ccc(-c3cc(O)ccc3C)c(C)n2)CC1
IC50 (EPHB2 (Homo sapiens, UniProt P29323); target engagement in cells, BRET): 0.0052 µM

CC[C@@H]1NC(=O)[C@@H]2CSSC[C@@H]3NC(=O)[C@H](CCCCN)NC(=O)[C@@H]4CSSC[C@H](NC(=O)[C@H](CC(=O)O)NC(=O)[C@H](CCCCN)NC(=O)[C@@H]5CCCN5C(=O)[C@H]([C@@H](C)O)NC(=O)[C@H](CCCNC(=N)N)NC(=O)[C@@H](NC(=O)[C@H](CO)NC(=O)[C@H](C)N)CSSC[C@H](NC(=O)[C@H](CCCCN)NC(=O)CNC(=O)[C@H](Cc5ccc(O)cc5)NC(=O)[C@@H]5CCCN5C(=O)[C@H](CSSC[C@@H](C(N)=O)NC(=O)[C@H](CCCNC(=N)N)NC(=O)[C@H](CC(N)=O)NC3=O)NC(=O)CNC(=O)[C@H]([C@@H](C)O)NC(=O)[C@H](CCC(=O)O)NC(=O)[C@H](CCCCN)NC1=O)C(=O)N[C@@H](CCSC)C(=O)N[C@@H](CC(N)=O)C(=O)N[C@@H](CCCNC(=N)N)C(=O)N[C@@H](CCCCN)C(=O)N4)C(=O)N[C@@H](C)C(=O)N[C@@H](CC(=O)O)C(=O)N1CCC[C@H]1C(=O)N2
IC50 (Potassium voltage-gated channel subfamily A member 1 (Kcna1, Mus musculus, UniProt P16388); potassium current, blocker, whole-cell patch clamp; L929 cells expressing mouse Kv1.1): > 0.1 µM

CC(C)(C)c1ccc(NC(=O)NCCC[C@H](CNCc2ccccc2)C[C@H]2O[C@@H](n3cnc4c(N)ncnc43)[C@H](O)[C@@H]2O)cc1
IC50 (Actin-histidine N-methyltransferase (SETD3, Homo sapiens, UniProt Q86TU7); enzyme activity, inhibitor, radiometric): > 50 µM

CN(C)C(=O)[C@@H](NC(=O)c1cnccc1-c1ccc(C(F)(F)F)cc1)c1cc(C(F)(F)F)cc(C(F)(F)F)c1
IC50 (KLRK1 with ULBP6; ligand binding, inhibitor, TR-FRET; HEK293 expressing NKG2D and DAP10; together with: ULBP6-AF647): 0.5 ± 0.3 µM

Cc1c(C(=O)CC2OC(=O)C(Cl)=C2Cl)sc2ccc(Cl)cc12 (centres unmarked)
IC50 (Genome polyprotein, NS3 protease (Hepatitis C virus genotype 1b, UniProt P26663); Hepatitis C virus): 71 ± 14 µM

O=C1C=CC(=C(c2ccc(O)cc2)c2c(C#Cc3ccc(O)cc3)cccc2-c2ccc(O)cc2)C=C1
IC50 (PDE4D (Homo sapiens, UniProt Q08499); enzyme activity, inhibitor, fluorescence): 1.68 µM

C[C@@H](O)[C@H](NC(=O)[C@H](CCCCN)NC(=O)[C@H](Cc1c[nH]c2ccccc12)NC(=O)CN)C(=O)N[C@@H](CCCNC(=N)N)C(=O)NC(C)(C)C(=O)N[C@@H](CCCNC(=N)N)C(=O)NC(C)(C)C(=O)N[C@H](C(=O)N[C@@H](CO)C(=O)N[C@@H](Cc1c[nH]cn1)C(=O)N[C@@H](Cc1ccc(O)cc1)C(=O)NCC(=O)O)[C@@H](C)O
IC50 (Integrin alpha-2, with integrin beta-1 (Homo sapiens, UniProt P17301); K562 expressing integrin α2; 60 min, 37 °C): 0.0007 µM

COc1ccccc1C(NS(=O)(=O)c1cc2ccc(O)nc2cc1Cl)C(=O)N(CC(=O)NCCn1cc(COCCOCCOCCNc2cccc3c2C(=O)N(C2CCC(=O)NC2=O)C3=O)nn1)Cc1cccs1 (mixture of isomers)
IC50 (OGT (Homo sapiens, UniProt O15294); enzyme activity, inhibitor, fluorescence): 0.68 µM

CC(C)Cc1cc(C(=O)O)nc2[nH][nH]c(=O)c12
IC50 (Metallo-beta-lactamase type 2; inhibitor; 10 min preincubation, together with: FC5 fluorogenic substrate): 348 µM

CC1OC(OC2CC(O)C3(CO)C4C(O)CC5(C)C(C6COC(=O)C6)CCC5(O)C4CCC3(O)C2)C(O)C(O)C1O (centres unmarked)
IC50 (porcine Na+/K+-ATPase; enzyme activity, colorimetric phosphate release): 2.6 µM

C[C@H](CS)C(=O)Nc1cc(-n2nccn2)cc2c1OCO2
IC50 (Metallo-beta-lactamase type 2; inhibitor; 10 min preincubation, together with: FC5 substrate): 4.19 µM

Nc1ncnc2c1ncn2[C@@H]1O[C@H](CSCCNC(=O)NCCc2ccccc2)[C@@H](O)[C@H]1O
IC50 (DNA (cytosine-5)-methyltransferase 3B, with DNMT3L (DNMT3B, Homo sapiens, UniProt Q9UBC3); inhibitor): > 50 µM

CC(=O)Nc1ccc2ccn(-c3cc(NS(=O)(=O)c4ccccc4)n4ncc(C#N)c4n3)c2c1
IC50 (CSNK2A1 (Homo sapiens, UniProt P68400); target engagement in cells, BRET): 3.98 µM

Excerpt of the above:
CC[C@H](C)[C@@H]1NC(=O)[C@H](CCCNC(=N)N)NC(=O)[C@H](CCCNC(=N)N)NC(=O)[C@H](C)NC(=O)[C@H](Cc2ccc(O)cc2)NC(=O)CSC[C@@H](C(=O)NCC(N)=O)NC(=O)[C@H]([C@@H](C)CC)NC(=O)[C@H](C(C)C)NC(=O)[C@H](C(C)C)NC(=O)[C@H](CC(C)C)NC(=O)[C@H](CCCNC(=N)N)NC(=O)[C@H](CC(=O)O)NC(=O)[C@H](CCCNC(=N)N)NC(=O)[C@H](Cc2ccccc2)NC(=O)[C@H](C(C)C)NC(=O)[C@H](CC(C)C)NC(=O)[C@H]([C@@H](C)CC)NC1=O
IC50 (NNMT (Homo sapiens, UniProt P40261); enzyme activity, inhibitor, mass spectrometry): 4.96 µM and ~5 µM

O=C1C=CC(=C(c2ccc(O)cc2)c2c(C#Cc3ccc(O)cc3)cccc2-c2ccc(O)cc2)C=C1
IC50 (PDE4D (Homo sapiens, UniProt Q08499); enzyme activity, inhibitor, fluorescence): 1.68 µM

CC(=O)NC1C(OC2OC(CC(O)C3OC(n4ccc(=O)[nH]c4=O)C(O)C3O)C(O)C(O)C2NC(=O)C=CCCCCCCCCCC(C)C)OC(CO)C(O)C1O (centres unmarked)
IC50 (Putative glycosyltransferase MJ1113 (Methanocaldococcus jannaschii, UniProt Q58513); enzyme activity, inhibitor; Methanococcus jannaschii enzyme): > 50 µM

CN1C(=O)[C@H](Cc2ccccc2)N(C)C(=O)[C@@H]2[C@H]1CCN2Cc1cc(Cl)cc(Cl)c1
IC50 (KLRK1 with ULBP6; ligand binding, inhibitor, TR-FRET; HEK293 expressing NKG2D and DAP10; together with: ULBP6-AF647): 13.6 µM
